Published values pooled from the literature.
Parts stem from different laboratories: compare values within a part only. Positions count from the first letter of the parent shown.

Set 1
Target: Centromere-binding protein 1, full length, N-terminal tag (CBF1, Saccharomyces cerevisiae, UniProt P17106, residues 1-351)
Sequence of UniProt P17106 (whole entry, looked up): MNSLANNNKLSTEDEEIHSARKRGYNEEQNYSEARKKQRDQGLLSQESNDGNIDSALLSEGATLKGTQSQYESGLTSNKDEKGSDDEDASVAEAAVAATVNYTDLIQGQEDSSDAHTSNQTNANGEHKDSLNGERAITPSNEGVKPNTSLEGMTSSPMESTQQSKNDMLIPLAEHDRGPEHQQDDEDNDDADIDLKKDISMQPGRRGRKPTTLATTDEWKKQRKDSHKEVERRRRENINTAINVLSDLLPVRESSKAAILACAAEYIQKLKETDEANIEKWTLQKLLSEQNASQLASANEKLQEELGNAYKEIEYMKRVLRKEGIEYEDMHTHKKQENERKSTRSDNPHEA
Method: protein-binding microarray
Molecule type: double-stranded DNA, one strand shown
Matrix: in vitro
Concentration: 0.8 µM
Notes: whole 60-bp probe, no competitor
Reading: higher = stronger binding
Shared flanks, not repeated: … GTCTTGATTCGCTTGACGCTGCTG
Sequence | fluorescence intensity
CTATTTATACACTATCACGCACATTAGGGTTCTTTC | 619 a.u.
TGTACGAAGCTATGGCATGCGCATATAGTAGTTAGG | 531 a.u.
GAACAATAAACAAATGAAATCACGTTCAACTTCTAG | 1090 a.u.
CTATACCAACAGCACGGCATGATGACTCCAAACTTC | 556 a.u.
GAACAGAAAAGTTTCCACATGATATTTATTAGCTAG | 1030 a.u.
GAAGCCTACATACCTCACGATATGATGAATAAATAG | 571 a.u.
CTACGGCGGACGTGTCACCCGGACCGAAACAGATTC | 480 a.u.
TGTACGAAGCTATGATACGTGCTTATAGTAGTTAGG | 536 a.u.
CTAATTAGTCTTTTATTCGTGATAAAAGCGAAATTC | 544 a.u.
CTAACGGATATACGATATGTGACCAGCCGGCAATTC | 551 a.u.
CTATTTGTTTCGTACTTCGTGACTGTTTGGCATTTC | 654 a.u.
CTACGCCAACCAAGCCTTACCCTAACCTTATACTTC | 487 a.u.
GAATTGGAGTCTACACACGTTTCCAACCTCTGCTAG | 532 a.u.
CTAAAACCCTACCGTCATCATATGAAATATCAATTC | 499 a.u.
GAAAAGGACTTATAAAACGTGAACTTTCTAGTTTAG | 557 a.u.
CCTAACTACTATAATCATCAGCGATAGCTTCGTACA | 533 a.u.
GAACAACATGCAAGTCACGAAATGACGAATGAATAG | 600 a.u.
CTATCTCAGATGACTCAGGTGTGCTCTTTTCAATTC | 555 a.u.
GAAATACCGCCTTCTCACGTGGTACAGGCACAATAG | 4590 a.u.

Set 2
Target: Histone acetyltransferase KAT6A, winged helix 2, GST fusion (KAT6A, Homo sapiens, UniProt Q92794, residues 85-181)
Method: protein binding microarray
Molecule type: double-stranded DNA, one strand shown
Matrix: in vitro
Concentration: not given
Notes: 8-mer, flanks averaged, mean of 2 arrays, mostly near background
Relative to: not given
Reading: higher = stronger binding
Residues (chain): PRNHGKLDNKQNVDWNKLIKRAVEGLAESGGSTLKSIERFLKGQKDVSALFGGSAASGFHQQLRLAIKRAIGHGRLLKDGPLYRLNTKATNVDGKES
Sequence | E-score
ATAACCAT | -0.183
ATATCTCC | -0.0528
ACGCGTGC | -0.0308
TAAACTAA | 0.138
ACGTATCA | -0.169
AGTGATAC | -0.0126
CCCCAAGA | 0.00881
CACCTCCA | 0.0494
AACGGCGA | 0.215
AACGGACG | -0.0369
CTCCCCTA | -0.0196
AATCCACA | -0.0954
AAAATTAT | 0.134
CGCGGTGC | 0.0743
CCGAGATA | 0.188
TGAGACAA | -0.138
AGGGCGTG | 0.0149
GACGTTAA | -0.176
CCGGTCGC | 0.202
GAGGCTGC | 0.142
ACAATCGA | 0.101
AATGTTGT | -0.185
AACGTCCG | -0.183
CTACTCAA | 0.107
GCTCCTCA | -0.00594

Set 3
Target: CCNE1, cyclin fold, Cln2 fusion (human)
Method: yeast growth competition, sequencing
Matrix: yeast
Notes: strong parent motif
Relative to: not given
Reading: higher = stronger binding
Starting sequence: CDKN1A docking peptide (human); SKACRRLFGPVDS
Variant | normalised enrichment score
R6G | 0.243
R5C | 0.571
A3I | 2.07
V11D | 7.11
R5G | 0.357
G9S | 5.84
L7N | 0.148
D12T | 4.88
P10G | 5.28
F8N | 0.451
C4M | 1.76
V11E | 6.7
D12C | 4.19
A3W | 1.75
A3L | 0.919
R6S | 1.67
C4Q | 1.89
R5Y | 0.167
G9Y | 5.97

Set 4
Target: ABI1, truncated, D143A, DHFR fusion (Arabidopsis thaliana, UniProt P49597)
Method: DHFR PCA, dose-response
Matrix: yeast
Notes: Hill fit, mean, not affinity
Added: (+)-ABA, dose series
Reading: lower = more sensitive
Starting sequence: PYL1, truncated, DHFR fusion (Arabidopsis thaliana, UniProt Q8VZS8); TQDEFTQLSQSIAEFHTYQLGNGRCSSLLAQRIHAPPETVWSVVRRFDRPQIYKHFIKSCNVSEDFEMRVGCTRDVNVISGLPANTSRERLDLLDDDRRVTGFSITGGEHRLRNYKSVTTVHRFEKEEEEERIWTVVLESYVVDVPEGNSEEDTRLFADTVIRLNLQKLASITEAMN
Variant | ABA EC50 [µM]
L169V | 251
F5D | 6.09
C72D | 3.66
L166N | 948
A170Q | 2.6
S59P | 657
I172G | 219
D97F | 6.44
D97S | 2.58
Q167M | 1.97
S104G | 321
D95I | 34.5
K116S | 1.83
F5L | 2
S63L | 6.23
T1F | 2.77

For quick reference, copied from above (set 2):
Sequence | E-score
TGAGACAA | -0.138
CCGAGATA | 0.188
CCCCAAGA | 0.00881
AAAATTAT | 0.134
GACGTTAA | -0.176
CCGGTCGC | 0.202
AGGGCGTG | 0.0149
ATATCTCC | -0.0528
AATCCACA | -0.0954
CACCTCCA | 0.0494
AGTGATAC | -0.0126
ATAACCAT | -0.183
AATGTTGT | -0.185
